# Results gathered from unrelated publications.
# Protocols differ between the studies behind these lines. Numbers after ± are the reported error.
# GRB2: Growth factor receptor-bound protein 2 (GRB2, Homo sapiens, UniProt P62993)
# HCRTR1: Orexin/Hypocretin receptor type 1 (HCRTR1, Homo sapiens, UniProt O43613)
# UniProt O43613, sequence (whole entry, looked up): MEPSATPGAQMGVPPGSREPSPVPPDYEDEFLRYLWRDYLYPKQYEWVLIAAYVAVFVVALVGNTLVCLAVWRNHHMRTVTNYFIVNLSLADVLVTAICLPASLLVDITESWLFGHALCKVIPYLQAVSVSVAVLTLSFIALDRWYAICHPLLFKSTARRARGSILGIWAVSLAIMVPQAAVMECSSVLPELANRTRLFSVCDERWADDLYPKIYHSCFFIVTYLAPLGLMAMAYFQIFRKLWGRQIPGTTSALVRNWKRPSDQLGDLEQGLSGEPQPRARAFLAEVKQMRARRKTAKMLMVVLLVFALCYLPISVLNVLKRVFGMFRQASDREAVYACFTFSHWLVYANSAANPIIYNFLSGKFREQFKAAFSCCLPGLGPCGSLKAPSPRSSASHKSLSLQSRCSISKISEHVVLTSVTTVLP
# LRP1 CR5 domain: LRP1, CR5 domain (Homo sapiens, UniProt Q07954)
# UniProt Q07954, sequence (whole entry, looked up): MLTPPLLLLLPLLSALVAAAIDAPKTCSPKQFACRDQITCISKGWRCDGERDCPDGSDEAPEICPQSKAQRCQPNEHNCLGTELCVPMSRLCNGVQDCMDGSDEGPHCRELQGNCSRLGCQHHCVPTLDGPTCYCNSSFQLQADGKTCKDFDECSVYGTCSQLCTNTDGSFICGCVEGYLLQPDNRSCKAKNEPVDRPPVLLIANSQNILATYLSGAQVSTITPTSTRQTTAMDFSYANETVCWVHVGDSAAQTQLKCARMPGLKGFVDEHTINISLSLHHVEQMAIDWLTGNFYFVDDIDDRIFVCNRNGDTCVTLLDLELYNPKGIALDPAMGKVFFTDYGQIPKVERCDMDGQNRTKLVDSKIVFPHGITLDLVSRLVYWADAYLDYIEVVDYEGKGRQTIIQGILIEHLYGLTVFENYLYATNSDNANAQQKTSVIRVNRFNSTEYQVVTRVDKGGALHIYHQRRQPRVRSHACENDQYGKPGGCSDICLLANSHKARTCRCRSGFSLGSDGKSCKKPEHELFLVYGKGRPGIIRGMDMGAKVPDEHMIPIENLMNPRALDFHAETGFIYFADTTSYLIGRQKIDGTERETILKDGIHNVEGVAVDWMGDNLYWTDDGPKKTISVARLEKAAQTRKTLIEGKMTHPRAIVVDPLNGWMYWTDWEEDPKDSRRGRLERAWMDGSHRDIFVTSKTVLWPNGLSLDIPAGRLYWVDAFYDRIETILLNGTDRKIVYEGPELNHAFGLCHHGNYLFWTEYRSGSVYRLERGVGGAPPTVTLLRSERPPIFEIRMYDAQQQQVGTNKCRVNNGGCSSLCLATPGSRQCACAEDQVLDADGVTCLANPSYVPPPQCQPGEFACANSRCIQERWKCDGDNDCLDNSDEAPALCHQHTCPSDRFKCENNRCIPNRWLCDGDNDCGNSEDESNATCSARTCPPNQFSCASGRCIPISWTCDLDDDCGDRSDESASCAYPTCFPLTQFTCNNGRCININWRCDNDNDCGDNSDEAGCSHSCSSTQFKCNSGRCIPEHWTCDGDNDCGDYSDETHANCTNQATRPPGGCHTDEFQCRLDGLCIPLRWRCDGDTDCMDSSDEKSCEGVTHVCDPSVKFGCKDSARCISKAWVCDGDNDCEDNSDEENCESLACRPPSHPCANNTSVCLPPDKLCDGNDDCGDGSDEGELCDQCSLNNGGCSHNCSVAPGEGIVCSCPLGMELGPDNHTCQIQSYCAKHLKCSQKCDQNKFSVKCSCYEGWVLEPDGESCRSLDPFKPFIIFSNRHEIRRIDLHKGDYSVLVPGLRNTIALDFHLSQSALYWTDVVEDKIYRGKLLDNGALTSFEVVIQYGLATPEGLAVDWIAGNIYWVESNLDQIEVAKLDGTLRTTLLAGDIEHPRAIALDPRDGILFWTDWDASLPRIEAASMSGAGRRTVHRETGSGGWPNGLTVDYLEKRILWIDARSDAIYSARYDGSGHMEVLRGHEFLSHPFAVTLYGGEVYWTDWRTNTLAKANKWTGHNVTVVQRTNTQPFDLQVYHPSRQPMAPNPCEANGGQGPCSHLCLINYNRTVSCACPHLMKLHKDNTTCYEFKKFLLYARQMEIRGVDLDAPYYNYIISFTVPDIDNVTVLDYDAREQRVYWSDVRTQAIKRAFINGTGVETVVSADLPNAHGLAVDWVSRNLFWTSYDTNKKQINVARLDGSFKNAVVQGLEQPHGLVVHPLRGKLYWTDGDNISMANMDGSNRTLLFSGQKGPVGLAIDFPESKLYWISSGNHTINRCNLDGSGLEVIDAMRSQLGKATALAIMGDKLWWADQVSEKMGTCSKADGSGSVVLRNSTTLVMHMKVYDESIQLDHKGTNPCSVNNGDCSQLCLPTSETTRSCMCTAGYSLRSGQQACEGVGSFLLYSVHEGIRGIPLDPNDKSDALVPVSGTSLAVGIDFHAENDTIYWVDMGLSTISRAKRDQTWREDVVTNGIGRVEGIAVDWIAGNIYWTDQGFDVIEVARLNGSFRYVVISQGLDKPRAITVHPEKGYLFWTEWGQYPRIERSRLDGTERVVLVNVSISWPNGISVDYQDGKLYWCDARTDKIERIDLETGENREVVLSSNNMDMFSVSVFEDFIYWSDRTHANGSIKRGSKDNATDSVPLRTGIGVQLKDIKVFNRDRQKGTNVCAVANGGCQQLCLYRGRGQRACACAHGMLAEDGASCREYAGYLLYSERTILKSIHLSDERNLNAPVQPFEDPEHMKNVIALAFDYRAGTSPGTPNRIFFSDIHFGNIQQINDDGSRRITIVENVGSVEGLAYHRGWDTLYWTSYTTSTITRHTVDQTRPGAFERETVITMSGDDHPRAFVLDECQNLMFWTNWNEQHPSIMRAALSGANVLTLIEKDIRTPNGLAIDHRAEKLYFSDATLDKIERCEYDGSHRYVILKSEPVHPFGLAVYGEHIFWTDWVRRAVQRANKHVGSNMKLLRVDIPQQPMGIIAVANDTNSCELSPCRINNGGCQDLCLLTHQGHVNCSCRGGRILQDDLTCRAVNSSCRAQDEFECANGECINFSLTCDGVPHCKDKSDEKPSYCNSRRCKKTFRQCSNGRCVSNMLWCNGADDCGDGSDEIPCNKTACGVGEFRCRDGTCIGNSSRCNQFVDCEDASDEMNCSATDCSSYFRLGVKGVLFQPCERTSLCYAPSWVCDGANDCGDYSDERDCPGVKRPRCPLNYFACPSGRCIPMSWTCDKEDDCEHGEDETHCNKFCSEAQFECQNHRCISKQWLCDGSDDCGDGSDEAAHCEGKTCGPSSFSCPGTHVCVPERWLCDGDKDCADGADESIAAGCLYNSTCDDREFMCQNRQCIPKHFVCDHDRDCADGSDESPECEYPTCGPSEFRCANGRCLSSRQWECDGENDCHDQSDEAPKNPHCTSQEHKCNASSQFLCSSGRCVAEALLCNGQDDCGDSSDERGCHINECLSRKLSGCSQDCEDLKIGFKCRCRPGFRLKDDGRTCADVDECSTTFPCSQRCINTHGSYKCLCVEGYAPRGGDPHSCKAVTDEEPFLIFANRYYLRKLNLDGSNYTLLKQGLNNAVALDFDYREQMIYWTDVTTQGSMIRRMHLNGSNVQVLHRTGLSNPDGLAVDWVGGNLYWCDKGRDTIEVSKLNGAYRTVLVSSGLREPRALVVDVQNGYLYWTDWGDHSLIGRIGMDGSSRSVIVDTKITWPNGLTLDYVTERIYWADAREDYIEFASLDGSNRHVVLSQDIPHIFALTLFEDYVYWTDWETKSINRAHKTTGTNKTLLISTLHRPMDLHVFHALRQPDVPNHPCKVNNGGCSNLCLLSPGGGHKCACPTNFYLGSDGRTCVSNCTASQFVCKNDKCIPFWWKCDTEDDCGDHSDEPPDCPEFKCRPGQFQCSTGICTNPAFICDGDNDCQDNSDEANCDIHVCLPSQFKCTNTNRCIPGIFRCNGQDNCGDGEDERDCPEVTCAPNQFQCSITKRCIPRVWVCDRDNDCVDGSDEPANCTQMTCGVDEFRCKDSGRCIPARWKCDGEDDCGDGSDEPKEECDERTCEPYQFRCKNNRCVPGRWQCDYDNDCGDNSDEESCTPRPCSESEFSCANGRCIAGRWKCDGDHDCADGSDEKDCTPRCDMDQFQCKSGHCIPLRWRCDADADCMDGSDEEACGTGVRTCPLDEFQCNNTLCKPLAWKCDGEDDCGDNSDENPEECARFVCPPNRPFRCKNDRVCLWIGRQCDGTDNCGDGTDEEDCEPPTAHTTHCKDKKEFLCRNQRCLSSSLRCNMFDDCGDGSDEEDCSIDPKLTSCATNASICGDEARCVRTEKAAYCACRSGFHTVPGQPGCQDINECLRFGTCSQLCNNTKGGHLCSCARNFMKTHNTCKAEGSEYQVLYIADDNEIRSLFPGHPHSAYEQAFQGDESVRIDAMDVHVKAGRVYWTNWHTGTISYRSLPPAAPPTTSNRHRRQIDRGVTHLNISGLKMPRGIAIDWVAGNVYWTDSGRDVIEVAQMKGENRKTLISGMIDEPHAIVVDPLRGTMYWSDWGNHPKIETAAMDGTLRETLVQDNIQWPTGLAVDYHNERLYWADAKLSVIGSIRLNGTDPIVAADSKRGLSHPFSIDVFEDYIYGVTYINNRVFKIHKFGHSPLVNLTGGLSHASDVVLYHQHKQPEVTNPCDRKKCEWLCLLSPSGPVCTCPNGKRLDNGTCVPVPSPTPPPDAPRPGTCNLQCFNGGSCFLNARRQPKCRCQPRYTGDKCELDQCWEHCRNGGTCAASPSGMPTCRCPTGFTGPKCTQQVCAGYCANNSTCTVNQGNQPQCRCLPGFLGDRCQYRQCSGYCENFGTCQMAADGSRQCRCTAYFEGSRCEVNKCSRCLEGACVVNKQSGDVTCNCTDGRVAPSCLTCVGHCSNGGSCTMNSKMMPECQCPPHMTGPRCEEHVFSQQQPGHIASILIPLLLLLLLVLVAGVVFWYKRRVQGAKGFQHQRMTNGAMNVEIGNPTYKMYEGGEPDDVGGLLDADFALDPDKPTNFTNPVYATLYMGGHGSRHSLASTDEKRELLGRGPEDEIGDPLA
# PPIA: Peptidyl-prolyl cis-trans isomerase A (PPIA, Homo sapiens, UniProt P62937)
# UniProt P62937, sequence (whole entry, looked up): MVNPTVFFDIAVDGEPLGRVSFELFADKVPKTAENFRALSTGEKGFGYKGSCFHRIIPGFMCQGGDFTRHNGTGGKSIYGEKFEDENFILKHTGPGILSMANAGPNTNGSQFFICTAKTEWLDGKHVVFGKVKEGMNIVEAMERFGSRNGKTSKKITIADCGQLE
# SLC4A1: SLC4A1 (Homo sapiens, UniProt P02730)
Molecule,target,assay,system,conditions,Kd [µM]
CC[C@H](C)[C@H](NC(=O)[C@@H](N)CC(=O)O)C(=O)N1CCC[C@H]1C(=O)N1CCC[C@H]1C(=O)N1CCC[C@H]1C(=O)N[C@@H](CCCNC(=N)N)C(=O)N1CCC[C@H]1C(=O)N1CCC[C@H]1C(=O)N[C@@H](CCCCN)C(=O)N1CCC[C@H]1C(=O)N[C@@H](C)C(=O)N1CCC[C@H]1C(=O)O,GRB2,"binding, ITC",,pH 8,157
COc1ccc(CC2c3cc(OCC(F)(F)F)c(OC)cc3CCN2CC(=O)NCc2ccccc2)cc1OC (stereo not drawn),HCRTR1,,,,0.0094 ± 0.0017
COc1cccc2c1C(=O)c1c(O)c3c(c(O)c1C2=O)C[C@@](O)(C(C)=O)C[C@@H]3O[C@H]1C[C@H](N)[C@H](O)[C@H](C)O1,HIV-1 nucleocapsid-SL2 RNA complex,"binding, ESI-FTMS",,pH 7.5,44.7 ± 4
COC(=O)[C@@H](N)CCCCN,LRP1 CR5 domain,"binding, tryptophan fluorescence titration",isolated CR5 domain,"pH 7.4, 298 K, ionic strength 0.17",400 ± 20
CC1=C[C@H](O)CC(C)(C)[C@H]1/C=C/C(C)=C/C=C/C(C)=C/C=C/C=C(C)/C=C/C=C(C)/C=C/C1=C(C)C[C@@H](O)CC1(C)C,"GSTP1 (Homo sapiens, UniProt P09211)",surface plasmon resonance,,"25 °C, 1:1 binding model",1.3 ± 0.01
COC(=O)[C@H](CCCCN)NC(C)=O,"LRP1, CR3 domain (Homo sapiens, UniProt Q07954)","binding, tryptophan fluorescence titration",isolated CR3 domain,"pH 7.4, 298 K, ionic strength 0.02",1900 ± 90
NC[C@@H]1O[C@H](O[C@H]2[C@@H](O)[C@H](O[C@@H]3[C@@H](O)[C@H](N)C[C@H](N)[C@H]3O[C@H]3O[C@H](CN)[C@@H](O)[C@H](O)[C@H]3N)O[C@@H]2CO)[C@H](N)[C@@H](O)[C@@H]1O,HIV-1 SL3 RNA stem-loop,"binding, ESI-FTMS titration",,pH 7.5,4.2 ± 0.3
TNP-ATP trisodium salt,"msbA (Escherichia coli, UniProt P60752, L511P)",fluorescence titration,,,0.33 ± 0.16
COC(=O)CNC(=O)CN1CCc2cc(OC)c(OC)cc2C1Cc1ccc(OC)c(OC)c1 (stereo not drawn),HCRTR1,,,,6.63 ± 0.35
c1ccc(Nc2cccc3ccccc23)cc1,"chemosensory protein CSP2, Chilo suppressalis","binding, fluorescent probe, fluorescence titration",,pH 7.4,8.88
CC(C)C[C@H](NC(=O)[C@H](CC(N)=O)NC(=O)[C@H](CCCNC(=N)N)NC(=O)[C@H](CC(=O)O)NC(=O)[C@@H](NC(=O)[C@@H]1CCCN1C(=O)[C@@H]1CCCN1C(=O)[C@@H]1CCCN1)C(C)C)C(=O)N[C@@H](CCCCN)C(=O)N1CCC[C@H]1C(=O)N[C@@H](C)C(=O)N[C@@H](CCCNC(=N)N)C(=O)O,GRB2,"binding, ITC",,pH 8,49
CCCOc1cc2c(cc1OC)CCN(CC(=O)NCc1cccnc1)C2Cc1ccc(OC)c(OC)c1 (stereo not drawn),HCRTR1,,,,0.0419 ± 0.016
CC[C@H](C)[C@H](NC(=O)[C@@H](N)CC(=O)O)C(=O)N1CCC[C@H]1C(=O)N1CCC[C@H]1C(=O)N[C@@H](C)C(=O)N[C@@H](CCCNC(=N)N)C(=O)N1CCC[C@H]1C(=O)N1CCC[C@H]1C(=O)N[C@@H](CCCCN)C(=O)N1CCC[C@H]1C(=O)N[C@@H](Cc1c[nH]cn1)C(=O)N1CCC[C@H]1C(=O)O,GRB2,"binding, ITC",,pH 8,591
CCCC(=O)Oc1cc2c(cc1OC)CCN(CC(=O)NCc1ccccc1)C2Cc1ccc(OC)c(OC)c1 (stereo not drawn),HCRTR1,,,,0.0785 ± 0.024
O=C(c1cc(-c2cc(F)cc([N+](=O)[O-])c2O)cc([N+](=O)[O-])c1O)C1CCc2ccccc21 (stereo not drawn),PPIA,"ligand displacement, FP",,pH 7.8,0.54
COc1ccc(CC2c3cc(OC)c(OC)cc3CCN2CC(=O)Nc2cccc3ccccc23)cc1OC (stereo not drawn),HCRTR1,,,,0.732 ± 0.25
Oc1ccc2ccccc2c1,alpha-2u-globulin (Rattus rattus),"binding, fluorescence titration",,pH 7.2,0.46
COC(=O)[C@@H](N)CCCN=C(N)N,LRP1 CR5 domain,tryptophan fluorescence titration,,"pH 7.4, 298 K, CR5 domain, ionic strength 0.02",580 ± 30
CC[C@H]1OC(=O)[C@H](C)C(=O)[C@H](C)[C@@H](O[C@@H]2O[C@H](C)C[C@H](N(C)C)[C@H]2O)[C@](C)(OC)C[C@@H](C)C(=O)[C@H](C)[C@H]2N(CCCCn3cnc(-c4cccnc4)c3)C(=O)O[C@]12C,"rplD/rplV (Escherichia coli, UniProt P60723+P61175)",binding,,"high-affinity site, with: 4.5 mM Mg2+ and 150 mM NH4+",0.00833 ± 0.00116
COc1cc(OC)cc(C(=O)Nc2ccc(Cc3ccc(NC(=O)c4cc(OC)cc(OC)c4)c(C(=O)O)c3)cc2C(=O)O)c1,PPIA,"binding, SPR",,pH 7.4,0.58
COc1ccc(CC2c3cc(OC)c(OC)cc3CCN2CC(=O)NCCc2ccccc2)cc1OC (stereo not drawn),HCRTR1,,,,3.25 ± 0.23
"phosphatidylinositol 3,4-bisphosphate","Src kinase-associated phosphoprotein 2, PH domain (Skap2, Mus musculus, UniProt Q3UND0)",fluorescence polarization direct titration,,"pH 6.5, 21 °C, compound labelled with BODIPY TMR-X",40
O=[N+]([O-])c1ccc(C=Cc2ccc([N+](=O)[O-])cc2S(=O)(=O)O)c(S(=O)(=O)O)c1,SLC4A1,"chloride efflux, competitive inhibitor",human erythrocytes,"pH 7.2, 0 °C, internal chloride 150 mM",0.0485
Nc1ccn([C@H]2C[C@H](O)[C@@H](CO)O2)c(=O)n1,"Thymidine kinase 2, mitochondrial (Homo sapiens, UniProt O00142)","binding, ITC",,,13.2
[I-].[K+],SLC4A1,"Cl- exchange, inhibitor, 36Cl flux","erythrocytes, external","pH 10.7, 0 °C, internal Cl- 129 mM",11500
COc1ccc(CC2c3cc(OC)c(OC)cc3CCN2CC(=O)NC2CC(C)Nc3ccccc32)cc1OC (stereo not drawn),HCRTR1,,,,7.17 ± 0.39
CC(=O)O[C@H]1C(=O)[C@@]2(C)[C@H]([C@H](OC(=O)c3ccccc3)[C@]3(O)C[C@H](OC(=O)[C@H](O)[C@@H](NC(=O)c4ccccc4)c4ccccc4)C(C)=C1C3(C)C)[C@]1(OC(C)=O)CO[C@@H]1C[C@@H]2O,"Cytochrome P450 2C8 (CYP2C8, Homo sapiens, UniProt P10632)","binding, equilibrium spectral titration",purified enzyme,"pH 7.4, 25 °C, second site, two-site model, with: 2 µM enzyme",24.4 ± 5.2
CC[n+]1c(-c2ccccc2)c2cc(N)ccc2c2ccc(N)cc21,HIV-1 nucleocapsid-SL2 RNA complex,"binding, ESI-FTMS",,pH 7.5,13.5 ± 0.6
C[C@@H](O)[C@H](NC(=O)[C@H](CC(N)=O)NC(=O)[C@H](CC(N)=O)NC(=O)[C@H](CCCNC(=N)N)NC(=O)[C@@H](N)CC(N)=O)C(=O)NCC(=O)O,"dnaK (Escherichia coli, UniProt P0A6Y8)","peptide binding, surface plasmon resonance",,with: ADP,0.855
Nc1nc2c(ncn2[C@H]2C[C@H](O)[C@@H](COP(=O)(O)OP(=O)(O)OP(=O)(O)O)O2)c(=O)[nH]1,"DNA polymerase delta catalytic subunit, with Pol31/Pol32 (POL3, Saccharomyces cerevisiae, UniProt P15436, D321A/E323A)","substrate, pre-steady-state quench flow",,"opposite template C, no PCNA",24 ± 9

# For quick reference, copied from above:
Molecule,target,assay,system,conditions,Kd [µM]
COc1ccc(CC2c3cc(OC)c(OC)cc3CCN2CC(=O)NC2CC(C)Nc3ccccc32)cc1OC (stereo not drawn),HCRTR1,,,,7.17 ± 0.39
CCCC(=O)Oc1cc2c(cc1OC)CCN(CC(=O)NCc1ccccc1)C2Cc1ccc(OC)c(OC)c1 (stereo not drawn),HCRTR1,,,,0.0785 ± 0.024
NC[C@@H]1O[C@H](O[C@H]2[C@@H](O)[C@H](O[C@@H]3[C@@H](O)[C@H](N)C[C@H](N)[C@H]3O[C@H]3O[C@H](CN)[C@@H](O)[C@H](O)[C@H]3N)O[C@@H]2CO)[C@H](N)[C@@H](O)[C@@H]1O,HIV-1 SL3 RNA stem-loop,"binding, ESI-FTMS titration",,pH 7.5,4.2 ± 0.3
